Published values of several laboratories.
Parts stem from different laboratories: compare values within a part only. Substitutions count along the parent as printed.

Study 1 — target: CREBZF, bZIP domain (human); technique: DHFR protein complementation; medium: yeast; relative to: wild-type JUN-FOS pair; direction: higher = stronger binding
Notes: single substitutions, most at no-binding floor
Starting sequence: JUN, bZIP domain (human); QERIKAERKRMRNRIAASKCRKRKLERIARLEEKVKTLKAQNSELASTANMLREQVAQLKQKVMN; partner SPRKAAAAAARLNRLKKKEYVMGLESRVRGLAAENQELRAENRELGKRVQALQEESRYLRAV
With `I28G` the binding fitness was -1.5 natural log.
`V35R` has a binding fitness of -1.47 natural log.
With `A46Y` the binding fitness was -1.15 natural log.
With `S47I` the binding fitness was -1.41 natural log.
For `L38E`, the binding fitness was -1.53 natural log.
`E32W` has a binding fitness of -1.51 natural log.
The binding fitness of `N42L` is reported as -1.49 natural log.
For `R30G`, the binding fitness was -1.44 natural log.
`K34G` gave a binding fitness of -1.49 natural log.
For `L31V`, the binding fitness was -1.41 natural log.
The binding fitness of `K34E` is reported as -1.52 natural log.
For `E33F`, the binding fitness was -1.49 natural log.
For `L52T`, the binding fitness was -1.52 natural log.
For `N42G`, the binding fitness was -1.46 natural log.
The binding fitness of `K36E` is reported as -1.42 natural log.
The binding fitness of `T48P` is reported as -1.5 natural log.
The binding fitness of `L52Y` is reported as -1.45 natural log.
For `K39G`, the binding fitness was -1.4 natural log.
With `R53A` the binding fitness was -1.52 natural log.

Study 2 — target: CCNE2, cyclin fold, Cln2 fusion (human); technique: yeast growth competition, sequencing; medium: yeast; notes: strong parent motif; relative to: not given; direction: higher = stronger binding
Starting sequence: PKN2 docking peptide (human); VSAVRKLDFSDTM
`VSAVRKLDASDTM [F9A]` — result for “normalised enrichment score”: -0.0994.
`VSAVRKIDFSDTM [L7I]` — result for “normalised enrichment score”: 2.77.
For `VSAVIKLDFSDTM [R5I]`, “normalised enrichment score” read 0.335.
Under “normalised enrichment score”, `VSAVRKLDFSPTM [D11P]` is recorded as 4.53.
For `VSAVRKLYFSDTM [D8Y]`, “normalised enrichment score” read 3.69.
`VSAVRKLDFFDTM [S10F]` — result for “normalised enrichment score”: 3.05.
`VSAKRKLDFSDTM [V4K]` — result for “normalised enrichment score”: 4.6.
Under “normalised enrichment score”, `VSAVRKLDFSYTM [D11Y]` is recorded as 5.04.
`VSAVRKADFSDTM [L7A]`: “normalised enrichment score” -0.0257.
`VFAVRKLDFSDTM [S2F]`: “normalised enrichment score” 3.01.
For `VGAVRKLDFSDTM [S2G]`, “normalised enrichment score” read 5.01.
`VSAVRKLDFCDTM [S10C]`: “normalised enrichment score” 3.93.
For `VSAIRKLDFSDTM [V4I]`, “normalised enrichment score” read 3.42.
For `VSAVRHLDFSDTM [K6H]`, “normalised enrichment score” read 1.74.
For `VSAVRKLDHSDTM [F9H]`, “normalised enrichment score” read 0.353.
Under “normalised enrichment score”, `VSAVRKLDFSATM [D11A]` is recorded as 5.22.
`VSAVRKLDWSDTM [F9W]`: “normalised enrichment score” 2.
For `VSMVRKLDFSDTM [A3M]`, “normalised enrichment score” read 1.43.
`VSAVRILDFSDTM [K6I]` — result for “normalised enrichment score”: 3.19.
`VNAVRKLDFSDTM [S2N]` — result for “normalised enrichment score”: 4.67.
`VSAWRKLDFSDTM [V4W]`: “normalised enrichment score” 0.761.
Under “normalised enrichment score”, `VRAVRKLDFSDTM [S2R]` is recorded as 4.77.
`VSAVRKLDFSDGM [T12G]`: “normalised enrichment score” 4.14.
`VSAVFKLDFSDTM [R5F]` — result for “normalised enrichment score”: 0.0118.
Under “normalised enrichment score”, `VSAVRKTDFSDTM [L7T]` is recorded as 0.178.

Study 3 — technique: aptamer microarray, sandwich; molecule type: DNA with 2'F-ANA; medium: in vitro; tested at: 200 nM; with: Cy3 exosite-II aptamer, 400 nM; direction: higher = stronger binding; sequence: GGTTGGTGTGGTTGG
Target: Prothrombin, mature alpha-thrombin (F2, Homo sapiens, UniProt P00734)
Notes: whole 15-mer aptamer, many near background
`2'F-ANA at 5 6 8 9 10 13 14`: “mean fluorescence intensity” 164 a.u.
For `2'F-ANA at 1 2 3 5 6 7 10 12 15`, “mean fluorescence intensity” read 53.3 a.u.
`2'F-ANA at 1 3 6 8 9 10 11 12 13 15`: “mean fluorescence intensity” 91.9 a.u.
For `2'F-ANA at 1 4 5 13 14 15`, “mean fluorescence intensity” read 44.3 a.u.
`2'F-ANA at 3 4 7 8 11 12 15` — result for “mean fluorescence intensity”: 911 a.u.
`2'F-ANA at 1 4 7 8 11 14`: “mean fluorescence intensity” 59.2 a.u.
`2'F-ANA at 1 4 5 6 7 11 13 15`: “mean fluorescence intensity” 55.7 a.u.
`2'F-ANA at 1 3 5 8 10 12 13 14` — result for “mean fluorescence intensity”: 48.1 a.u.
`2'F-ANA at 1 6 8 9 10 12`: “mean fluorescence intensity” 89.1 a.u.
`2'F-ANA at 7 11 13 14 15` — result for “mean fluorescence intensity”: 220 a.u.
`2'F-ANA at 1 2 3 6 10 12 13 14 15` — result for “mean fluorescence intensity”: 54.2 a.u.
`2'F-ANA at 2 3 4 7 9 10 12` — result for “mean fluorescence intensity”: 354 a.u.
For `2'F-ANA at 1 2 8 9 10 11 13 14 15`, “mean fluorescence intensity” read 48.6 a.u.
For `2'F-ANA at 3 6 7 10 11 12 14`, “mean fluorescence intensity” read 407 a.u.
`2'F-ANA at 3 4 6 11 12`: “mean fluorescence intensity” 767 a.u.
Under “mean fluorescence intensity”, `2'F-ANA at 1 2 5 6 8 10 11 13 15` is recorded as 54.8 a.u.
For `2'F-ANA at 1 3 4 5 6 7 8 10 12 14 15`, “mean fluorescence intensity” read 66.7 a.u.
Under “mean fluorescence intensity”, `2'F-ANA at 1 4 5 8 11 12 13 14 15` is recorded as 51 a.u.
`2'F-ANA at 2 3 4 7 9 12 13 14` — result for “mean fluorescence intensity”: 265 a.u.
For `2'F-ANA at 3 5 6 13`, “mean fluorescence intensity” read 79.8 a.u.
`2'F-ANA at 2 4 5 6 7 8 13 14` — result for “mean fluorescence intensity”: 71.4 a.u.
Under “mean fluorescence intensity”, `2'F-ANA at 4 5 10 11 12` is recorded as 52 a.u.
Under “mean fluorescence intensity”, `2'F-ANA at 6 9 10 11 13 15` is recorded as 126 a.u.
`2'F-ANA at 2 4 6 10 11 12 14 15` — result for “mean fluorescence intensity”: 57.5 a.u.
Under “mean fluorescence intensity”, `2'F-ANA at 2 4 7 8 10 11 13 15` is recorded as 81.6 a.u.

Study 4 — technique: DHFR PCA, deep sequencing; medium: yeast; with: (+)-ABA 0.39 µM; relative to: wild-type fitted maximum; direction: higher = stronger binding
Target: ABI1, truncated, D143A, DHFR fusion (Arabidopsis thaliana)
Notes: methotrexate growth selection, single substitutions
Starting sequence: PYL1, truncated, DHFR fusion (Arabidopsis thaliana); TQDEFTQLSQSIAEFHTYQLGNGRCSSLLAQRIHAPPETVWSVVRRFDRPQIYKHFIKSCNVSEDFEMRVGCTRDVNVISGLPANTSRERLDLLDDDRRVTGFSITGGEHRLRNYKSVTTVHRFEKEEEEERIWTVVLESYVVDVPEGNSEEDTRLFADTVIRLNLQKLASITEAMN
Under “relative binding score”, `L82Y` is recorded as 41.7%.
`I162F` — result for “relative binding score”: -10.6%.
`V121F` — result for “relative binding score”: -6.72%.
Under “relative binding score”, `P146T` is recorded as 19.6%.
Under “relative binding score”, `I172N` is recorded as 6.19%.
`V142C` — result for “relative binding score”: 40%.
`V136Y` — result for “relative binding score”: 3.64%.
`C25P` — result for “relative binding score”: 3.45%.
`R132W`: “relative binding score” 8.44%.
`L156P` — result for “relative binding score”: 3.92%.
`S59T`: “relative binding score” 30.8%.
`I162G` — result for “relative binding score”: 9.4%.
Under “relative binding score”, `D159P` is recorded as -21.1%.
For `C25G`, “relative binding score” read -4.4%.
For `D97I`, “relative binding score” read 20.4%.
`V40A`: “relative binding score” -2.34%.

Study 5 — technique: protein-binding microarray; molecule type: double-stranded DNA, one strand shown; medium: in vitro; tested at: not given; direction: higher = stronger binding
Target: Protein C-ets-1 (ETS1, Homo sapiens, UniProt P14921, residues 1-441, full length assumed)
Notes: k-mer, scored over probes, only values ≥0.25
Residues (chain): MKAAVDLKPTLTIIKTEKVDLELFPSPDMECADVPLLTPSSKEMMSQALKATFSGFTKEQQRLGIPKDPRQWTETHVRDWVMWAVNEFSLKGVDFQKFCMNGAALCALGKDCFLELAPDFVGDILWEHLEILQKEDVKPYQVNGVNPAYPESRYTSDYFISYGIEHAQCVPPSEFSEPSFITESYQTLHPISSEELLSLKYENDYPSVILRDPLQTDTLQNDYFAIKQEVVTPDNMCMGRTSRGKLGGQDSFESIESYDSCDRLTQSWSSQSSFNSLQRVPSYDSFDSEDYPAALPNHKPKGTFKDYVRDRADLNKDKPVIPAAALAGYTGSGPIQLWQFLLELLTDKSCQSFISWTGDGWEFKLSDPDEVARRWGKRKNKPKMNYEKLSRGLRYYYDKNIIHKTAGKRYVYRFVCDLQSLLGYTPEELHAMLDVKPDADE
For `ACGCGGAA`, the E-score was 0.368.
`CGACGGAA` has an E-score of 0.399.
`TCCGGAGA` gave an E-score of 0.371.
`AGTTCCTG` has an E-score of 0.419.
For `ATCCGCCG`, the E-score was 0.402.
With `ATCCCGGA` the E-score was 0.419.
The E-score of `AACTTCCG` is reported as 0.488.
With `CCGGTACC` the E-score was 0.392.
With `CAGAGGAA` the E-score was 0.328.
`ATCTTCCG` gave an E-score of 0.422.
The E-score of `CATTTCCA` is reported as 0.284.
`CGGATAAA` has an E-score of 0.298.
`CCTCGAGG` has an E-score of 0.312.
For `ATACACCG`, the E-score was 0.26.
`CAGCCGGA` gave an E-score of 0.459.
For `CCGGATAG`, the E-score was 0.439.
With `AAGGGGAA` the E-score was 0.313.
For `TTCGGAAA`, the E-score was 0.259.
The E-score of `AGCGGGAA` is reported as 0.257.

Study 6 — technique: protein binding microarray; molecule type: double-stranded DNA, one strand shown; medium: in vitro; tested at: not given; relative to: not given; direction: higher = stronger binding
Target: Histone acetyltransferase KAT6A, both winged helices, GST fusion (KAT6A, Homo sapiens, UniProt Q92794, residues 1-181)
Notes: 8-mer, flanks averaged, mean of 2 arrays, mostly near background
Target sequence (chain): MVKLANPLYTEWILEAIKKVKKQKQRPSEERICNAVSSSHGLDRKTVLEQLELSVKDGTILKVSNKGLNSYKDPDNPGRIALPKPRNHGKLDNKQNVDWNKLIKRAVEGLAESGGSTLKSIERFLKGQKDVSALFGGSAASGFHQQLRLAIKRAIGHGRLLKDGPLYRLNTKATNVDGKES
With `CTGGACTC` the E-score was -0.151.
With `CGAGCGCA` the E-score was 0.221.
For `TAAAGAAA`, the E-score was -0.137.
`ACACGGAA` gave an E-score of 0.245.
With `AAAGCGCT` the E-score was 0.336.
`CTTTACTA` has an E-score of -0.0398.
`CCGCGCTC` gave an E-score of 0.317.
`ATTGACTA` gave an E-score of -0.0799.
`CCCCCTAG` gave an E-score of -0.282.
The E-score of `CATGGGAC` is reported as -0.116.
For `GGGTGCAC`, the E-score was -0.104.
For `ACAGCCTG`, the E-score was -0.113.
For `CTATTACC`, the E-score was 0.0133.
For `AGACGACT`, the E-score was -0.0567.
For `ACACATTG`, the E-score was 0.0371.
`ATGCCCGC` gave an E-score of 0.228.
With `CCAAACGC` the E-score was -0.0619.

Study 7 — technique: Sort-seq; item: YFP reporter; medium: E. coli; notes: PhoQ-PhoP variant library; with: 10 µM Mg2+; relative to: high Mg2+ state; direction: higher = stronger signaling
Molecule: PhoQ, residues 284 288 289 292 302 303 TLMATV
PhoP, residues 12 14 15 18 19 TQCLL (Escherichia coli, UniProt P23836) — fold induction: 2.21.
It gave 4.88 for fold induction (PhoP, residues 12 14 15 18 19 VHTVL (Escherichia coli, UniProt P23836)).
For PhoP, residues 12 14 15 18 19 ICWRQ (Escherichia coli, UniProt P23836): fold induction read 6.27.

Some of these lines once more (study 1):
The binding fitness of `T48P` is reported as -1.5 natural log.
The binding fitness of `L52Y` is reported as -1.45 natural log.
For `R30G`, the binding fitness was -1.44 natural log.
For `L38E`, the binding fitness was -1.53 natural log.
The binding fitness of `K36E` is reported as -1.42 natural log.
`E32W` has a binding fitness of -1.51 natural log.
The binding fitness of `K34E` is reported as -1.52 natural log.
`V35R` has a binding fitness of -1.47 natural log.
For `K39G`, the binding fitness was -1.4 natural log.
